{"data": "Results gathered from unrelated publications", "note": "Every numbered part comes from another study and shows a few of its results, in no order. Changes are numbered by the printed parent chain."}
{"data": "Study 1", "target": "Sal-like protein 4, full length isoform B (SALL4, Homo sapiens, UniProt Q9UJQ4-2, residues 1-616)", "method": "universal PBM", "molecule type": "double-stranded DNA, one strand shown", "sample": "in vitro", "tested at": "not given", "notes": "8-mer, flanks averaged, mean of replicates", "reading": "higher = stronger binding", "Target sequence (chain)": "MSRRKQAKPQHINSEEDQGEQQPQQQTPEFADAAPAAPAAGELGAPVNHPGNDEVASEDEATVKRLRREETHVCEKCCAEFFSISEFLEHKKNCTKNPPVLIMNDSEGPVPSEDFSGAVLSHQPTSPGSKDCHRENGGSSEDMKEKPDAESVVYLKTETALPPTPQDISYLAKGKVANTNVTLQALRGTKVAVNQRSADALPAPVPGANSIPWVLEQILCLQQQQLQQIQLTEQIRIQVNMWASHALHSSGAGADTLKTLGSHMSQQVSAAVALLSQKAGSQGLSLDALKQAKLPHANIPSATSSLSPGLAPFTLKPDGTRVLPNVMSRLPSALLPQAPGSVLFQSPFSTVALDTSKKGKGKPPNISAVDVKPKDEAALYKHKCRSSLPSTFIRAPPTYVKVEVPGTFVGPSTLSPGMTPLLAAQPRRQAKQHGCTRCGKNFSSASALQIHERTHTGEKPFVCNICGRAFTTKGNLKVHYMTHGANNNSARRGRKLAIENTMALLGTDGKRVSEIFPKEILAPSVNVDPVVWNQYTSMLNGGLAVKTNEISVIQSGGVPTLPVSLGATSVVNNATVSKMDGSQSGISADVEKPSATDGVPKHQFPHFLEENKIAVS"}
{"Oligonucleotide": "GGACAATA", "E-score": 0.166}
{"Oligonucleotide": "AACACCAG", "E-score": -0.136}
{"Oligonucleotide": "CGACCGGA", "E-score": -0.376}
{"Oligonucleotide": "TACGAGCA", "E-score": -0.023}
{"Oligonucleotide": "CGACAACC", "E-score": -0.176}
{"Oligonucleotide": "ACAAGTGG", "E-score": 0.0421}
{"Oligonucleotide": "AGCTGGGG", "E-score": -0.183}
{"Oligonucleotide": "CCGGATTA", "E-score": -0.136}
{"data": "Study 2", "target": "Sox, HMG box (Pigoraptor chileana)", "method": "Spec-seq", "molecule type": "double-stranded DNA, one strand shown", "sample": "in vitro", "tested at": "not given", "notes": "whole probe, mean of replicates", "relative to": "not given", "reading": "lower = stronger binding", "shared flanks, not repeated": "GAGTCGTCTCGTCAGCAC … CCGTAGAGCACTCAGGTC", "Target sequence (chain)": "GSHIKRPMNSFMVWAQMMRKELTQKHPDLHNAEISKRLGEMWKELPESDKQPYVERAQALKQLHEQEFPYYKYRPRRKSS"}
{"Oligonucleotide": "AAGAGTT", "relative binding energy [ln ratio]": -0.65}
{"Oligonucleotide": "CATCGCC", "relative binding energy [ln ratio]": 0.986}
{"Oligonucleotide": "AACCGTT", "relative binding energy [ln ratio]": -0.197}
{"Oligonucleotide": "CATGACT", "relative binding energy [ln ratio]": 0.713}
{"Oligonucleotide": "CATCTCT", "relative binding energy [ln ratio]": 0.607}
{"Oligonucleotide": "CATCGGT", "relative binding energy [ln ratio]": 0.608}
{"Oligonucleotide": "GAGCGTT", "relative binding energy [ln ratio]": 1.25}
{"Oligonucleotide": "CATGTAA", "relative binding energy [ln ratio]": 0.411}
{"data": "Study 3", "Variant": "S27D", "target": "ABI1, truncated, D143A, DHFR fusion (Arabidopsis thaliana)", "method": "DHFR PCA, deep sequencing", "sample": "yeast", "notes": "methotrexate growth selection, single substitutions", "relative to": "wild-type fitted maximum", "reading": "higher = stronger binding", "starting sequence": "PYL1, truncated, DHFR fusion (Arabidopsis thaliana); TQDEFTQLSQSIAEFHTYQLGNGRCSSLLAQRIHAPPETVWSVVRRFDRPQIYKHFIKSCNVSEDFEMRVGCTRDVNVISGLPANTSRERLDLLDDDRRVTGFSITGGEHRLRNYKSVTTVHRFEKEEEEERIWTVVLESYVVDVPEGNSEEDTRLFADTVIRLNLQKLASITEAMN; partner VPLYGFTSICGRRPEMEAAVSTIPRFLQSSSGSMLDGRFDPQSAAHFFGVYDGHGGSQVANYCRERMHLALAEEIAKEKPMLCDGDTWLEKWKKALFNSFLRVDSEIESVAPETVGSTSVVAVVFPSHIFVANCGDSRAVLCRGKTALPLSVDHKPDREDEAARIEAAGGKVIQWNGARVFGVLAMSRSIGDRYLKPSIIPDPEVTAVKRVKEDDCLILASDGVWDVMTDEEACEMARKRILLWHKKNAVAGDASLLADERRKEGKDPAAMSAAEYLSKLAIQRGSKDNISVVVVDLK"}
{"with": "(+)-ABA 2500 µM", "relative binding score [%]": 97}
{"with": "(+)-ABA 0.032 µM", "relative binding score [%]": 3.12}
{"with": "(+)-ABA 0.39 µM", "relative binding score [%]": 7.38}
{"with": "(+)-ABA 0 µM", "relative binding score [%]": -4.24}
{"with": "(+)-ABA 17 µM", "relative binding score [%]": 69.9}
{"data": "Single results of other studies"}
{"Compound": "CCS(=O)(=O)CCn1c([N+](=O)[O-])cnc1C", "organism": "Plasmodium berghei", "test": "inhibitor", "system": "Huh-7, GFP-expressing, liver stage", "conditions": "10 µM, 24 h", "how to read": "relative to: untreated control", "measurement": "infection rate", "result": "94.2%"}
{"note": "Some of these lines once more (study 3):"}
{"with": "(+)-ABA 2500 µM", "relative binding score [%]": 97}
